Published values from different studies.
Protocols differ between the studies behind these lines. Numbers after ± are the reported error.
Organism: Trypanosoma cruzi

| Compound | assay | system | conditions | measurement | result |
| --- | --- | --- | --- | --- | --- |
| N#CSCCOc1ccc(Oc2cccnc2)cc1 | tdTomato fluorescence | Vero cells, CL strain, tdTomato | 72 h, intracellular amastigotes | ED50 | 7.4 ± 0.45 µM |
| O=C(N[C@H](Cc1c[nH]c2ccccc12)C(=O)Nc1ccncc1)c1ccc(-c2cccc(C(F)(F)F)c2)cc1F | – | Y luc, mouse | oral, 50 mg/kg twice daily, 4 days, vehicle 20% Solutol | parasite inhibition | > 90% |
| O=[N+]([O-])c1nccn1CCCNCc1cc(C(F)(F)F)cc(C(F)(F)F)c1 | growth | L6 myoblasts, Tulahuen C4 | intracellular amastigotes | IC50 | 4 to 60 µM |
| COc1cccc(Oc2ccc(OCCSC#N)cc2)c1 | parasite growth, tdTomato fluorescence | Vero, CL, tdTomato-expressing, amastigotes | 3 d post-infection | IC50 | 4.6 µM |
| Cc1cc(C2CCCCC2)n(O)c(=O)c1 | PrestoBlue | trypomastigote | 48 h, DMSO stock retest | IC50 | 0.9 ± 0.22 µM |
| c1ccc2c(NCCCn3ccnc3)ncnc2c1 | amastigote replication | Vero | IC25, 240 h | inhibition | 40% |
| O=C(N[C@H](Cc1c[nH]c2ccccc12)C(=O)Nc1ccncc1)c1ccc(-c2ccc(F)c(F)c2)cc1F | – | Y luc, mouse | oral, 50 mg/kg twice daily, 4 days, vehicle 20% Solutol | parasite inhibition | > 70% |
| O=C(Cn1ccnc1[N+](=O)[O-])NCc1ccccc1 | viability, resazurin | trypomastigotes, Y | 24 h, RPMI medium, together with: 30 µM heme | IC50 | 12 ± 6.5 µM |
| COc1ccc(C[C@H](N)C(=O)N[C@H]2[C@@H](O)[C@H](n3cnc4c(N(C)C)ncnc43)O[C@@H]2CO)cc1 | PrestoBlue | trypomastigote | 48 h, DMSO stock retest | IC50 | 0.62 ± 0.09 µM |
| CCOC(=O)c1csc(NN=Cc2cccc(OC)c2)n1 | parasite growth | – | 24 h, trypomastigote | EC50 | 12.9 µM |
| CN(C)C(=N)N=C(N)N | parasite growth | Vero | 20 mM, 72 h, intracellular, amastigote | inhibition | 51.7% |

Excerpt of the above:
| Compound | assay | system | conditions | measurement | result |
| --- | --- | --- | --- | --- | --- |
| c1ccc2c(NCCCn3ccnc3)ncnc2c1 | amastigote replication | Vero | IC25, 240 h | inhibition | 40% |
